Measured values from different studies.
Values joined by “and” are separate records of one study, mostly repeats; a detail may differ. ± gives the spread as reported. Values after ≈ are worked out from the molar mass of the structure shown.

Structure (SMILES)	cell line	assay	system	setting	scale	endpoint	value
COCCCn1c(N)c(C(=O)NC2CCCC2)c2nc3ccccc3nc21	OCI-Ly1			1 µM, 120 h		viability	151%
O=C1CCP(=S)(c2ccccc2)CC1	HCT-116	ELISA		concentration not given, compound at IC50	reference: control	IL-6 secretion decrease	93.4%
COc1c(CCC[P+](c2ccccc2)(c2ccccc2)c2ccccc2)cc2c(c1OC)OCO2.[I-]	M14	SRB				GI50	-5.65 log M
C[C@]12CC[C@H](O)C[C@H]1CC[C@@H]1[C@@H]2CC[C@]2(C)[C@@H](c3ccc(=O)oc3)CC[C@]12O	MCF7	RT-qPCR, item: PGR		50 nM, 48 h, unit not given, added: estradiol	reference: untreated	mRNA level	0.933 and 0.819 and 0.983
Oc1ccc(C2(c3ccc(O)cc3)c3ccccc3-c3ccccc32)cc1	HepG2 spheroids	cell proliferation, flow cytometry, item: Ki67		10 µM, 24 h	reference: solvent control	inhibition	12.1%
CN(C)c1cc(NC(=O)CNC(C)(C)C)c(O)c2c1C[C@H]1C[C@H]3[C@H](N(C)C)C(O)=C(C(N)=O)C(=O)[C@@]3(O)C(O)=C1C2=O	Escherichia coli DH5α expressing KPC-2	bacterial growth				MIC	0.125 µg/mL (≈ 0.213 µM)
O=C(O)c1ccc2c(c1)nc(Nc1cccc(Cl)c1)c1ccncc12	U2OS expressing CK2alpha-HA V66A/I174A	western blot, item: phospho-EIF2S2 S2		concentration not given, 24 h		EIF2S2 S2 phosphorylation	inhibited
Cn1nccc1Nc1nccc(-c2ccn([C@H](CO)c3ccc(Cl)c(F)c3)c(=O)c2)n1	HCT116	IncuCyte		concentration not given, 40 (unit not given)		PI-positive cells	9.83 count and 12.2 count and 15.4 count
CN1CCN(C2(CNC3CCN(c4cccc(-c5cc6cc(F)ccc6[nH]5)c4)CC3)CCC2)CC1	HOP-62					CC50	7.31 µM
CCN(CC)c1ccc(C=NNC(=O)CSc2nc3ccccc3c(=O)n2Cc2ccc(S(N)(=O)=O)cc2)c(O)c1	M14	NCI five-dose screen				CC50	> 100 µM
COc1ccc2c(c1)[nH]c1c(C)nccc12	DU-145	bisulfite pyrosequencing, item: RASSF1A promoter CpG site 23		concentration not given	reference: vehicle	methylation reduction	3.09%
Nc1ncnc2c1ncn2[C@@H]1O[C@@H]2COP(=O)(O)O[C@H]3[C@@H](O)[C@H](n4cnc5c(=O)[nH]cnc54)O[C@@H]3COP(=O)(O)O[C@H]2[C@H]1O	HFF-1	RNA sequencing, item: Muscle contraction		downregulated pathway	reference: Zika virus alone	pathway fold enrichment	4.73
Oc1cc(Cl)ccc1Oc1ccc(Cl)cc1Cl	HepG2	extracellular flux, item: reserve respiratory capacity		24 h, distribution mode 2		point of departure	1.23 µM
COc1ccc(C(=O)Nc2ccc3c(c2)C=CCP(=O)(O)O3)cc1	A-375	cell proliferation, MTT		100 µM, 72 h, normoxia		maximal inhibition	~10%
CC(C)N1CCC(NC2CCN(c3cccc(-c4cc5cc(F)ccc5[nH]4)c3)CC2)CC1	SK-MEL-5					GI50	1.56 µM
COc1cc(CCC[P+](c2ccccc2)(c2ccccc2)c2ccccc2)c(OC)c2c1OCO2.[I-]	EKVX	SRB				LC50	> -4 log M
Cc1cnc2ccc3c(nc(N)n3C)c2n1	BALB/c 3T3	colony forming efficiency		10 µM		colony number	94 colonies per plate and 92 colonies per plate and 87 colonies per plate
COc1cc(C(=O)c2c[nH]c3cc(-c4cccc(O)c4)ccc23)cc(OC)c1OC	MDA-MB-231	scratch		200 nM, 72 h		wound confluence	~0%
COc1ccc([C@H]2c3[nH]c4ccc(Cl)cc4c3CCN2C(=O)Oc2ccc(Cl)cc2)cc1	human dermal fibroblasts with PBMC	cytokine secretion, item: MMP-1		0.1 µM, 48 h		inhibition	23%
CN(C)NC(=O)CCC(=O)O	OCI-Ly1			1 µM, 120 h		viability	110%

Structure (SMILES)	cell line	assay	system	setting	scale	endpoint	value
N.N.[Cl][Pt][Cl]	MDA-MB-231	cell viability		48 h, light irradiation 2.5 min		IC50	33.68 ± 0.23 µM
Nc1ncc(-c2nc(N3CCOCC3)nc(N3CCOCC3)n2)c(C(F)F)n1	SK-N-AS			72 h		GI50	0.172 µM
O=C(Nc1ccc2[nH]nc(-c3ccncc3)c2c1)[C@@H]1CCN(CC(=O)N2CCN(c3ccc(-c4ncccn4)cc3)CC2)C1	HCT116	IncuCyte		concentration not given, 8 (unit not given)		PI-positive cells	2.17 count and 3.92 count and 2.92 count
Cc1n[nH]c(C)c1CSC1CCCCC1	U-937	cytotoxicity			reference: IC50 HEK293 over IC50 U-937	selectivity index	1.6
Nc1nc2nc[nH]c2c(=S)[nH]1	HCT-116 3-6	clonogenic		1.25 µM, 10 days		surviving fraction	0.53
CCOC(=O)c1ccc(N2C(N)=C(C#N)C3(C(=O)Nc4ccccc43)C(C#N)=C2O)cc1 (stereo not drawn)	Caco-2	qRT-PCR, item: Bcl-2		IC50	reference: untreated	mRNA fold change	0.194
N.N.[Cl][Pt][Cl]	SGC-7901	CCK-8		glutamine deficiency		IC50	12.1 µM
Cn1cncc1C1=CN(c2ncnc3[nH]cnc23)CCS1	HOP-92			lung cancer		CC50	> 200 µM
Cc1cc(C(C)(C)c2ccc(O)c(C)c2)ccc1O	HepG2 spheroids	planimetry		5 µM, 0 to 24 h	reference: mean area of 72 h spheroids	spheroid area increase	123%
COc1c(C)c2c(c(O)c1C/C=C(\C)CCC(=O)O)C(=O)OC2	MV4-11	cell proliferation	blood cancer			IC50	0.331 µM
C=CC(=O)N[C@H]1C=C(C)c2c(-c3cnc4ccccc4c3)c3c(N)ncnc3n2C1	NCI-H2073 EGFR SVD knock-in	cell proliferation, CellTiter-Glo			reference: knock-in over parental NCI-H2073	selectivity ratio	3
Cc1sc2c(c1C)C(c1ccc(Cl)cc1)=N[C@@H](CC(N)=O)c1nnc(C)n1-2	OCI-Ly1			0.5 µM, 120 h		viability	22.7%
Oc1ccc(C(c2ccc(O)cc2)(C(F)(F)F)C(F)(F)F)cc1	HepG2 spheroids	planimetry		5 µM, 0 to 24 h	reference: mean area of 72 h spheroids	spheroid area increase	126%
Nc1ccc([N+](=O)[O-])cc1	human cells	reporter gene, agonist, luciferase reporter			reference: positive control	fitted curve top	0%
CC[C@H](C)[C@H](NC(=O)CNC(=O)[C@@H](N)CCCCN)C(=O)N[C@@H](CC(C)C)C(=O)N[C@@H](CCCCN)C(=O)N[C@@H](CCCNC(=N)N)C(=O)N[C@@H](CCC(=O)O)C(=O)N[C@@H](CCCCN)C(=O)N[C@@H](CCCNC(=N)N)C(=O)N[C@@H](CC(C)C)C(=O)N[C@@H](CCCNC(=N)N)C(=O)N[C@@H](CCCNC(=N)N)C(=O)N[C@@H](CCCCN)C(=O)N[C@@H](CC(N)=O)C(=O)N[C@H](C(=O)N[C@@H](Cc1c[nH]cn1)C(=O)N[C@@H](Cc1c[nH]c2ccccc12)C(=O)N1CCC[C@H]1C(=O)N[C@@H](CCC(=O)O)C(=O)N[C@@H](CCC(=O)O)C(=O)NCC(=O)N[C@@H](CCCCN)C(=O)N[C@@H](CC(C)C)C(=O)N[C@@H](CCCNC(=N)N)C(=O)N[C@@H](CCC(=O)O)C(=O)N[C@@H](Cc1ccccc1)C(=O)N[C@@H](Cc1ccccc1)C(=O)N[C@@H](Cc1ccccc1)C(=O)N[C@@H](Cc1ccccc1)C(=O)N[C@@H](CCC(=O)O)C(=O)N[C@@H](CC(C)C)C(=O)N[C@@H](CC(=O)O)C(=O)N[C@@H](CCC(=O)O)C(=O)N[C@@H](C)C(=O)N[C@@H](CCC(=O)O)C(=O)N[C@@H](CCCNC(=N)N)C(=O)N[C@H](C(=O)N[C@@H](CC(N)=O)C(=O)N[C@H](C(=O)O)C(C)C)C(C)C)C(C)C	HeLa (mitotic)	protein phosphorylation, TMT phosphoproteomics, item: histone H3.2 Ser29	cell lysate	concentration not given, 15 min	reference: treated over control	log2 fold change	2.66
C/C=C(/C)C(=O)O[C@H]1C(C)=C2[C@H]([C@@H]1OC(=O)CCCCCCC)[C@@](C)(OC(C)=O)C[C@H](OC(=O)CCC)[C@@]1(O)[C@H]2OC(=O)[C@@]1(C)O	HEK-293T	RNA-seq GSEA, item: Hallmark KRAS signaling down		500 nM, 6 h	direction not given	normalized enrichment score	-1.15
COc1cc([C@@H]2c3cc4c(cc3C[C@H]3COC(=O)[C@@H]32)OCO4)cc(OC)c1OC	neuroblastoma M2 (+)	western blot		IC50	reference: untreated	PARP cleavage	increased
O=C1N(Cc2ccccc2Cl)c2ccccc2C12NN=C(c1ccccc1)S2 (stereo not drawn)	MDA-MB-468	gene expression array, item: MT1F mRNA		10 µM, 12 h	reference: untreated, down	fold change	2.5
C[C@H]1COCCN1c1nc(NCc2cccnc2C(F)(F)F)c2cccnc2n1	cardiomyocytes	cellular ATP level		in vitro toxicology		IC50	> 100 µM
